Published values of several laboratories.
Every numbered part comes from another study and shows a few of its results, in no order.

Sample 1
Target: Interferon regulatory factor 7, full length, phosphomimetic (IRF7, Homo sapiens, UniProt Q92985, residues 1-503, S471D/S472D/S475D/S476D/S477D/S483D/S484D/S487D)
Method: protein-binding microarray
Molecule type: double-stranded DNA, one strand shown
Sample: in vitro
Tested at: 2200 nM top
Setting: 60-bp whole probe
Added: salmon DNA 0.4 mg/ml
Baseline: random background probes
Reading: higher = stronger binding
Endpoint: fitted relative affinity
Target sequence (chain): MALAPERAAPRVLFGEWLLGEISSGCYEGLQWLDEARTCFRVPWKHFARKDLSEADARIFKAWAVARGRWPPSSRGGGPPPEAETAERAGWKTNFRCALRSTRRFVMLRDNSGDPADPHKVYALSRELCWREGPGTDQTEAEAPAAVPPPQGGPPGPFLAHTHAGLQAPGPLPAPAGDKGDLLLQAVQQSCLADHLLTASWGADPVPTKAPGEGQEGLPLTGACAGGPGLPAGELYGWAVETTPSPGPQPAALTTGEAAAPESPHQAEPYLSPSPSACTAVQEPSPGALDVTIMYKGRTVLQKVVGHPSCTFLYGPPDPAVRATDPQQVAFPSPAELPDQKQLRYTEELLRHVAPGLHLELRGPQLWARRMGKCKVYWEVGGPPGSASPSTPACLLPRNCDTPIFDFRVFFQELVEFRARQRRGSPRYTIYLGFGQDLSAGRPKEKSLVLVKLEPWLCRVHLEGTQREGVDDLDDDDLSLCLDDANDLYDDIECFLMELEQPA
GCCTAGCACAAAAAAATCATTTTCTCTGTGTGCTAGGTCTTGATTCGCTTGACGCTGCTG: -0.231 z-score
GCCTAGCACTCATTTTCATATATATAACTGTGCTAGGTCTTGATTCGCTTGACGCTGCTG: 2.89 z-score
GCCTAGCACCGCTCCCTTTATTCCACATTGTGCTAGGTCTTGATTCGCTTGACGCTGCTG: 1.92 z-score

Sample 2
Target: Centromere-binding protein 1, full length, His-tagged (CBF1, Saccharomyces cerevisiae, UniProt P17106, residues 1-351)
UniProt P17106, sequence (whole entry, looked up): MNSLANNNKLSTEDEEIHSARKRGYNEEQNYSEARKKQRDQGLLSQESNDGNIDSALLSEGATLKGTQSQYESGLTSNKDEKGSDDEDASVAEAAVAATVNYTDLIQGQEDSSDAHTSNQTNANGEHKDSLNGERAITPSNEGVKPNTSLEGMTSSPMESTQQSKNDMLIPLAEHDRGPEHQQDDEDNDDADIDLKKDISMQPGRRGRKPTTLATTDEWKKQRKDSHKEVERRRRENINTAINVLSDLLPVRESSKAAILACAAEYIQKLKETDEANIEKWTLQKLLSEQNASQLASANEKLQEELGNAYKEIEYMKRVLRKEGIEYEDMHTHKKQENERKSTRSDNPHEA
Method: competition protein-binding microarray
Molecule type: double-stranded DNA, one strand shown
Sample: in vitro
Tested at: 2 µM
Setting: whole 60-bp probe, lowest competitor level
Added: Pho4 competitor, 0.05 µM
Reading: higher = stronger binding
Endpoint: fluorescence intensity
ACTTGAGTCAAAAGGCATGTGCGCCTCTTGTTATCTGTCTTGATTCGCTTGACGCTGCTG: 101 a.u.
TACATTGCTGTATTGCACGGCCCTTGCGGGTATGGCGTCTTGATTCGCTTGACGCTGCTG: 62.5 a.u.
GATCCCGCTCCTTGGCGTGTTCATTCTGTTACGATCGTCTTGATTCGCTTGACGCTGCTG: 73.8 a.u.
AAATTACTAAGTTGCGGGGTGGGTGACGCCGTATGAGTCTTGATTCGCTTGACGCTGCTG: 79.7 a.u.

Other studies, line by line
PhoQ, residues 284 288 289 292 302 303 AMDMFI
fold induction (PhoP, residues 12 14 15 18 19 NMSFL (Escherichia coli, UniProt P23836); Sort-seq, item: YFP reporter; E. coli; PhoQ-PhoP variant library, added: 10 µM Mg2+; baseline: high Mg2+ state, higher = stronger signaling): 1.5

CCGGGAAA
E-score (Histone acetyltransferase KAT6A, winged helix 1, GST fusion (KAT6A, Homo sapiens, UniProt Q92794, residues 1-85); protein binding microarray; double-stranded DNA, one strand shown, in vitro; not given, 8-mer, flanks averaged, mean of 2 arrays, mostly near background; baseline: not given, higher = stronger binding): 0.223

For quick reference, copied from above (sample 1):
GCCTAGCACAAAAAAATCATTTTCTCTGTGTGCTAGGTCTTGATTCGCTTGACGCTGCTG: -0.231 z-score
